Assay results of several laboratories.
A part holds a random share of what one study measured.

Set 1 — method: competition protein-binding microarray; molecule type: double-stranded DNA, one strand shown; sample: in vitro; tested at: 2 µM; with: Cbf1 competitor, 0.05 µM; reading: higher = stronger binding; all sequences stand within: … GTCTTGATTCGCTTGACGCTGCTG
Target: Phosphate system positive regulatory protein PHO4, full length, GST-tagged (PHO4, Saccharomyces cerevisiae, UniProt P07270, residues 1-312)
Setting: whole 60-bp probe, lowest competitor level
Target sequence (chain): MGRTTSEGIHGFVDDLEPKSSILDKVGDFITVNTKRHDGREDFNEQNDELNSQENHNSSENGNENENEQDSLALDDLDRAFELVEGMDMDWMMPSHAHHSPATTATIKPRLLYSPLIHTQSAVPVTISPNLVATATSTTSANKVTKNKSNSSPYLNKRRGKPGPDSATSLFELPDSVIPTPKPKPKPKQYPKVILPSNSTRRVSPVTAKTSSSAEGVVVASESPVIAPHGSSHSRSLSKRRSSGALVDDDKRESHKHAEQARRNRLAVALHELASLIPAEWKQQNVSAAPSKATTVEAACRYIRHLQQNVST
Sequence	fluorescence intensity [a.u.]
TATTCCGGAAGATATCAGGTGAGAGAGAAAAGACAG	4560
GGCAATAGGCTTTCTCTCGTGCTGTACCCCTAATGT	8170
TGTACTCGGTCAACACACGTGCACAGAGCACCTACT	17500
AATGCACTTGATTTGCACGTGGGACCTGGGCGGCTA	17600
AACACACAGGGAAAGCACGATAAAAGGATACATAAG	7230
GATTGGGATCCTTGTCATGATGATGCCATAGCCATT	3660
AAAGTGCCCCCCGGCGTCGTGATGGACCTGATTGGA	5220
CGGGGTTAAGTTTTTCACGTGCATTGCTTGCAGCAG	15100
AATCCAATATTGAAAAACGTGAGTACGCAGAGGAGA	11600
AAATTACTAAGTTGCCGGGTGGGTGACGCCGTATGA	4600
CTTTCCCGATCTTGTCACAGAACTTTAGCACATTTG	3820
CGGGGTTAAGTTTGTCACCGCACTTGCTTGCAGCAG	3190
CCGGTCCCCCGATCCCATGCGCCAGGCGCGCCGGCA	5510
TGCGCAACAACTTGGCCTGTGGGTGTATGTCTAGAA	4670
TGCGCAACAACTTGTAAAGTGGGTGTATGTCTAGAA	4440
ACATCTCCATTGATTTGTTCTAATAGCATTTCATCC	3740
CTAACGAAGGTTTGGCCCGTGGGTGACAAGCCAAGT	9710
TTTTTTTGCTACCAACACGTGCCAGTGGTTTAGGTA	16900
TGAAGCTATTACTGGCACGCATCCATATCAGCTTAG	9120
AAAGCGGTAATTTGGCCCGTGGGTGCAGATATCTAT	9820
TGCGCAACAACTTTTCACGTGACATTATGTCTAGAA	11800
GTCTTGTCTCATTGACGGGTGGGTGTCCCCACTTCA	4420
TTTCCACAAACTCACCACGTTGAGAGTGTGTGTATA	12200
TCCAGAAGAACCCGTCACGTTTTGGATTGGTTTTTG	11500
GGTTTTTGAAATCATACCTGCCAAGCTTGCTGCACT	3330

Set 2 — method: RNA Bind-n-Seq; molecule type: RNA; sample: in vitro; tested at: not given; baseline: input RNA pool; reading: higher = stronger binding
Target: RING finger protein unkempt homolog, zinc fingers 1-6, GST-SBP tag (UNK, Homo sapiens, UniProt Q9C0B0, residues 30-357)
Setting: RNA with constant flanks, human and mouse sites, ends assumed
All sequences stand within: GGGAGUUCUACAGUCCGACGAUC … CAACAGAGGAUUGAGCAUCA
Construct (chain): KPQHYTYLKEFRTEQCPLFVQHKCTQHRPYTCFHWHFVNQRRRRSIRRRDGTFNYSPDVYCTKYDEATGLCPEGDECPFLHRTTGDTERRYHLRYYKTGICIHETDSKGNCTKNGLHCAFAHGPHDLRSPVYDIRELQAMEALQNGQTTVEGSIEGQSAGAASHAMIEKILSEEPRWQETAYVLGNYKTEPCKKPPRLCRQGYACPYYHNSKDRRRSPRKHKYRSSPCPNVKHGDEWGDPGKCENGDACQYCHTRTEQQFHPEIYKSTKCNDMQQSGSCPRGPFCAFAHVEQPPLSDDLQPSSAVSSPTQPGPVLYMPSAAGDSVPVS
Sequence	bound/input enrichment
GUAUAUAUAUAUAUUUUUUUUUGCUUAUUUAUAGGUGCUGUAUUUUAUUAUCUGAUUGUUAGGAAGGGAUGAAAGGGGCAAAUAUUCUUUAGAGGGAUAGACUGCCGGCAGUAUUGGGUA	23.9 ratio
ACCUCCAGGGUGUACUCCAGAGACAGGACUCUCAAACCACGCGGAGUGUCCUUUUACCUGGAUAGGACUCUGUGGCUGGCCAAGUCCACCUCCUCAUCCUUUGCAUCAUUUAUAGUUCAA	0.365 ratio
AGGGUAUGAUAUAUAUGGUAUGCAUACCAUGUAUACACAUUACCUGAGGUCAGAGUCAAUGUUGGAAACACAUACACACUUCAGUCUGUAAAUAUUCUUCCUCACUGAAACCUGUGCUUC	0.0398 ratio
CCUUCUGCAUAAGGUUUUUUUGUAGUGUAAUGUCUUAAUCAUAGUCUACCAUCAAAUAUUUUAGGAGUAUCUUUAAUGUUUAGAUAGUAUAUUAGCAGCAUGCAAUAAUUACAUCAUAAG	1.19 ratio
GAUCGAACCUGGUCUUUGUGGAAGAGACAGGAUGCGACUUCCUCGGAGUUUGAUCCAUUUUUUAGUCUCUUUGCAUUCACCAACAAAAUUACUUCUGUGCAUAGUAGAAUCAUUUGGUCU	1.87 ratio
GCCCGAGGCCUGAAGGAUGCUAACCAAAUUCGAGACGAAGAGCGCGCGGGUCAAAGGCCUUAGUUUUCAUCCUAAAAGACCCUGGAUCCUGACCAGUUUACACAAUGGGGUCAUCCAGUU	0.178 ratio
CCCCCUCGGAAGAAAAGGGCACGGGCUGACCCCACUGUGGAGAGCGAGGAGGCAUUCAAGAGUAGGAUGGAGGUGAAGGUGAAGAUCCCUGAAGAAUUAAAACCGUGGCUGGUGGAGGAC	0.602 ratio
UUCCGCCACAUGAGGAACCAUGCCUAUGAGCCACUCGCCAGCUUCCUAGACUUCAUUACUUACAGUUACAUGAUCGACAACGUGAUCCUGCUCAUCACAGGCACGCUGCACCAGCGCUCC	0.375 ratio
CUUCUACCGGGCGCCCCACGGGCCGAAGCCGCUCCAGUGUGCUGCUCUGCUCGUUACAACUUAGCAAUUUUGGCCUUUUUUGGUUUCUUCAUUGUGUAUGCAUUACGUGUGAAUCUGAGU	1.83 ratio
GAGCCACGAUGCUCCCCAUACCCCACCCAUUCCCGAUACACCUUACUUACUGUGUGUUGGCCCAGCCAGAGUGAGGAAGGAGUUUGGCCACAUUGGAGAUGGCGGUAGCUGAGCAGACAU	0.153 ratio
AUCUCCGCUAUGAACAAGGUGGCUGAAGUUUUACAAGUACCUCCAAUGAGAGUAUAUGAAGUAGCAACUUUUUAUACAAUGUAUAAUCGAAAGCCAGUUGGGAAGUACCAUAUCCAGGUC	0.103 ratio

Set 3 — method: protein binding microarray; molecule type: double-stranded DNA, one strand shown; sample: in vitro; tested at: not given; baseline: not given; reading: higher = stronger binding
Target: Histone acetyltransferase KAT6A, winged helix 1, GST fusion (KAT6A, Homo sapiens, UniProt Q92794, residues 1-85)
Setting: 8-mer, flanks averaged, mean of 2 arrays, mostly near background
Construct (chain): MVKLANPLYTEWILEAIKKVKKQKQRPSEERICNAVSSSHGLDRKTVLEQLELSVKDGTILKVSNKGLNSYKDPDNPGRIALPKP
Sequence	E-score
CTAATATC	-0.097
TAGTGTCA	0.0182
CACCATGC	-0.0377
ACCGTAAT	0.128
GCATGGGA	-0.178
CGCACCTA	0.00921
AATAAAAC	-0.141
ACAAGCTC	-0.183
AACAGTAT	-0.102
CACACCCC	-0.0534
GTCATGAC	0.0667
CGGGGAGA	0.108
AACAGGGT	-0.321
CGGATGGC	0.137
ATGACCCG	0.115
GAATCAGC	-0.0779
AGGCGTAC	0.092
TACGCCAA	-0.0676
AGGGTCGC	0.0761
ATCAGTAG	-0.218
ATTAGGTA	-0.158
CATTATAA	-0.0693
CCTAGCGA	-0.202
ATATCGAC	-0.0867
AACGCCGA	0.369

Set 4 — method: protein-binding microarray; molecule type: double-stranded DNA, one strand shown; sample: in vitro; tested at: not given; reading: higher = stronger binding
Target: Protein C-ets-1 (ETS1, Homo sapiens, UniProt P14921, residues 1-441, full length assumed)
Setting: k-mer, scored over probes, only values ≥0.25
Target sequence (chain): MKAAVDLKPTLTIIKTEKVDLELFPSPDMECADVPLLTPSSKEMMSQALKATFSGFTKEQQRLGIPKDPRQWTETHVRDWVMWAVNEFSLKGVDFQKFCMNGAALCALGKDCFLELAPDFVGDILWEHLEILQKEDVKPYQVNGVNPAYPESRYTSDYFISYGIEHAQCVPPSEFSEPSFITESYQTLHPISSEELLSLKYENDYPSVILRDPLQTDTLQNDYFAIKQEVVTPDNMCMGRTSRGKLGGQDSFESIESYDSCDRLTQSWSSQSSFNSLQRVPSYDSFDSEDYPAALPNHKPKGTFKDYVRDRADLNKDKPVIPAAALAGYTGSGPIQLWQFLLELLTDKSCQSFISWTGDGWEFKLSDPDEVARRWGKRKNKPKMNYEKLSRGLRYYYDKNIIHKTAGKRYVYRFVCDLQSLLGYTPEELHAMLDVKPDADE
Sequence	E-score
CTTCCGAC	0.442
CGAAAGGA	0.267
GTACCGGA	0.466
GGACGTTA	0.307
CCGGTTAA	0.34
TAAAGGAA	0.363
GCACATCC	0.382
ATACATCC	0.373
AGGAAACG	0.43
CGGATCCG	0.362
GCTCCGGA	0.332
AGGATGGG	0.32
CATCCGCC	0.479
ATAGGAAA	0.352
ATCCGGGC	0.432
GGAAGCTA	0.418
AAGACGGA	0.333
CATCCTGA	0.401
GAACATCC	0.435
CCTGTTCC	0.262
CCCCTCCC	0.287
ACGCATCC	0.424

Set 5 — method: RNA Bind-n-Seq; molecule type: RNA; sample: in vitro; tested at: 1 µM; setting: whole 134-nt RNA, ends assumed; with: 150 mM KCl; baseline: input library; reading: higher = stronger binding
Target: Ras GTPase-activating protein-binding protein 1, RRM domain (G3BP1, Homo sapiens, UniProt Q13283)
UniProt Q13283, sequence (whole entry, looked up): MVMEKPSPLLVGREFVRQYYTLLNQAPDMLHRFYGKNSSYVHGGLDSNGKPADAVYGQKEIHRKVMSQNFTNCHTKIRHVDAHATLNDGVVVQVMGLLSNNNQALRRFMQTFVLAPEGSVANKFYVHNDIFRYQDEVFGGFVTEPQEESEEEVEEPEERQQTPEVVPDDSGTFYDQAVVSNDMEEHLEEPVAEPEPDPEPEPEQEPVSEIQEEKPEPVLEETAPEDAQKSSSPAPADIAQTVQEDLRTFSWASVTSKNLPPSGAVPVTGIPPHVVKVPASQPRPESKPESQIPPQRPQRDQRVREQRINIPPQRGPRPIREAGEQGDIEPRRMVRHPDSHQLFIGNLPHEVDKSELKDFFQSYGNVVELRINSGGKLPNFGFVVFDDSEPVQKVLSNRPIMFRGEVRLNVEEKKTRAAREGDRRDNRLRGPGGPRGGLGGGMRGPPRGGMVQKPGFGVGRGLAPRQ
All sequences stand within: GGGAGUUCUACAGUCCGACGAUC … UGGAAUUCUCGGGUGUCAAGG
Sequence	log2 enrichment
UUAGGAAGAGAAGACAAGGUGGCCUCUCAUUAGAAGAAGAGGAAGAGGAGGAUGCCAAUUCAGAAUCUGAGGGAAGCAGUAGUGAGGAGG	-0.257
CCUGUGCUACACAUCGUAUGUACCGAAUCGGGGUUUUUUUGGGUUUUUUUGGUUUUUUUGGAAAGUAUUAUGUUACGCCGUUCGGAUCUG	-0.169
GAGGAGAUAAUCUCGGAAAAGUUACGGAAACCUGGGAAGUCGGCGAAACCCUACGUUCGGGUGUUUUCGGAAGCAGCCGAAGCGGCCGCC	-0.202
AAGUCCUGUGCUACACAUCGUAUGUACCGAAUCGGCCCCCGGCCCCCGGGCCCCCGGAAAGUAUUAUGUUACGCCGUUCGGAUCUGCACU	-0.448
CACAGACAACACGCACCCACACAGACACAGAAGGAAGGGGUUGGGAUGGGGACAGGGUGCACAGCAGGGCGGGGUAGGACCCCAGCCCCU	0.056
CUCAAGUCCUGUGCUACACAUCGUAUGUACCGAAUCGGUUUGGAAAGGAAAGGAAAGUAUUAUGUUACGCCGUUCGGAUCUGCACUUCCA	-0.121
UGGAGAUGACAGAAAUGACUGGUGUGUCGCUGAAACGUGGGGCACUGGUUGUCGAAGAUAAUGACAGUGGAGUCCCAGUUGAAGAGACAA	-0.207
UGGGAGGUGGAUUUUGUUUAUUUAUUUAGCUCAUUUCCAGGGGUGGGAAUUUUUUUUUAAUAUGUGUCAUGAAUAAAGUUGUUUUUGAAA	1.39
UCAAGUCCUGUGCUACACAUCGUAUGUACCGAAUCGGGUGGGAAAGGGAAAGGGAAAGUAUUAUGUUACGCCGUUCGGAUCUGCACUUCC	0.638
UCAAGUCCUGUGCUACACAUCGUAUGUACCGAAUCGGCCCGGCCCGGGGCCCGGGAAAGUAUUAUGUUACGCCGUUCGGAUCUGCACUUC	-0.535
CUGUGCUACACAUCGUAUGUACCGAAUCGGGUUUUUUUGGGGUUUUUUUGGGUUUUUUUGGGAAAGUAUUAUGUUACGCCGUUCGGAUCU	-0.136
CCUGUGCUACACAUCGUAUGUACCGAAUCGGGGAAAAAGGGGUUUUUUUGGGGUUUGGGGAAAGUAUUAUGUUACGCCGUUCGGAUCUGC	0.759
AGUCCUGUGCUACACAUCGUAUGUACCGAAUCGGGUUUUUGGGUUUUUGGUUUUUGGAAAGUAUUAUGUUACGCCGUUCGGAUCUGCACU	-0.228
UGUGCUACACAUCGUAUGUACCGAAUCGGGGUUUUUUUGGGGUUUUUUUGGGGUUUUUUUGGGAAAGUAUUAUGUUACGCCGUUCGGAUC	-0.16

Excerpt of the above (set 3):
Sequence	E-score
CCTAGCGA	-0.202
ATCAGTAG	-0.218
AGGCGTAC	0.092
GAATCAGC	-0.0779
TAGTGTCA	0.0182
ATATCGAC	-0.0867
CGGGGAGA	0.108
